Published values gathered from unrelated publications.
Every numbered part comes from another study and shows a few of its results, in no order. Positions count from the first letter of the parent shown.

Set 1 — method: RNA Bind-n-Seq; molecule type: RNA; sample: in vitro; concentration: 365 nM; relative to: no-protein control; direction: higher = stronger binding; endpoint: RBNS enrichment (R)
Target: RNA binding protein fox-1 homolog 2, RRM domain, GST-SBP tag (RBFOX2, Homo sapiens, UniProt O43251-10, residues 100-194)
Setting: natural RNA segment, single round, ends assumed
All sequences stand within: GGGAGUUCUACAGUCCGACGAUC … UGGAAUUCUCGGGUGCCAA
Target sequence (chain): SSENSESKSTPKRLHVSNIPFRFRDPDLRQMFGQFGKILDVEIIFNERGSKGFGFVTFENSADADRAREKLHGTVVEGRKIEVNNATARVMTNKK
GCUCCCUUGGCCAGGAGCGAGCGAAGCUGUGGCCUUGGUGAAGCUGCCCUCCUCUUCUCCCCUCACACUACAGCCCUGGUGGGGGAGAAGGGGGUGGGUGCUGCUUGUGG: 0.403
UCCUUAACUUCCUUCUGCCGACCUCCACCUCUGGUGGUUCCUGCCCUGCCUGGACACAGGGAGGCCCAGGGACUGACUCCUGGCCUGAGUGAUGCCCUCCUGGGCCCUUA: 0.392
CUGUUUGUGGUAGGAGAUAACCAGUCUUGUUUGUUUCUUACAUGGCAUUCCUUUGUUGUCCUGGGAUGGUGAGGUAUGUUUAUGGGAAAUGAGCAGAGGCCUGUAGGUAG: 0.445
GCCUAGACACCCCUGAAGUUUGGAUGAAGUCUGGUGGAUUCCCUGUCUGUUGUAUUUCUGUGUGCCUGUUCCCUUCAUUGCUGUGAGUUGGGAGUGCAUUGAGAGAUGAU: 2.35
AGGGCUGCACACACAGGGCGGCUCUCUGUGCUGGUCCCUUCGUAGCUCCCCAGACCCGCUCUGUUCCGUUGCUGUUAGAACAGUAGACUACUGACCGCUAUAGAGCAGAU: 0.234
UGAUCCCUUUGUACCAAGUCAAUGGCCACUUGAAAGUUCUGUGGACUCCCUUGUGGCCUCAACCCGUUCGUCCUUCAGCCUGUCAUCCUUCAGGCACCGACGCCCAACCU: 0.311
UCAAGAGUCAAACUGUGUGAGAAAAGCCAAAGAUUUUUUUUUGAGUCCUUUUGAAGACAGCUAGCUAAAUUUGCCUGCCAAAAGAUGUCAAUUAUUGAAUUGAUACCUGU: 0.639
GAUGUUUGUAAUUUUCAUGAAAAUGUGUGAUUUUCGUUUGUGAUAUGAAAGAUCAUUAAUCAAAGAAUAAGGAAGAAACAAGGUAAAACAGUCCUAAAAUGAUGGAACUA: 0.488
CAGGCAGGAUUGGUUUUUUUGUGUCUUGGCAAGUGGAGCAUAUUUAACAUACAGGCAUGGGAAUCCUGCCUCUUAGCUUUUCCCACCCUCUUGUCUCACCAAGUUUUUUC: 0.614
GUUUUGACUACGGUUAAAAUAAGUCAAAUAGUAAGUGGUAAAACACAUUUUUGUUAGUAUUGGAACUUUCUGGAGAACAUAAGGGCUAUGAGAAUGCAUAUAUAUAUUUU: 0.789
ACUGUCAUGUUCUUUACAUGUCACUUGUCAUUUUUAUUUGUGAAAAAUAAAAAGAUAAUUUAUUCACUUUUAUUGACCUGUUAUUAAGAAGACCAUUACUAAAUGGAGCU: 0.393
ACUCGGAAUACCUCUGUUUUCCAUUUCAAAUUGUAGGGGGAGGGGAUGGAACACUUCCAGUGAUGGUAAGAGAUCUGUUAUGAAACGAAACACCCCCCGUGUUAAUAACU: 0.35

Set 2 — target: JUND, bZIP domain (human); method: DHFR protein complementation; sample: yeast; relative to: wild-type JUN-FOS pair; direction: higher = stronger binding; endpoint: binding fitness
Setting: single substitutions, most at no-binding floor
Starting sequence: JUN, bZIP domain (human); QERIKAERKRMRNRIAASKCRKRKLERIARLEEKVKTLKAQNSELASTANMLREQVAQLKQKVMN; partner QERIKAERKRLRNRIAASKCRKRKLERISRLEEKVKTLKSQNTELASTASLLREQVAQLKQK
E33A: -0.677 natural log
Q41I: -0.694 natural log
A29Q: -0.83 natural log
T48N: -1.08 natural log
S43F: -0.834 natural log
I28C: -1.18 natural log
T37M: -0.19 natural log
A46Q: -0.545 natural log
S47D: -0.512 natural log
Q55T: -0.931 natural log
K36A: -0.537 natural log
R30L: -0.582 natural log
T48R: -1.01 natural log
Q41R: -0.825 natural log
T37H: -0.573 natural log
A49C: -0.103 natural log
A40K: -0.445 natural log
R53M: -1.18 natural log
E54Y: -1.05 natural log

Set 3 — method: DHFR PCA, deep sequencing; sample: yeast; together with: (+)-ABA 0.11 µM; relative to: wild-type fitted maximum; direction: higher = stronger binding; endpoint: relative binding score
Target: ABI1, truncated, D143A, DHFR fusion (Arabidopsis thaliana)
Setting: methotrexate growth selection, single substitutions
Starting sequence: PYL1, truncated, DHFR fusion (Arabidopsis thaliana); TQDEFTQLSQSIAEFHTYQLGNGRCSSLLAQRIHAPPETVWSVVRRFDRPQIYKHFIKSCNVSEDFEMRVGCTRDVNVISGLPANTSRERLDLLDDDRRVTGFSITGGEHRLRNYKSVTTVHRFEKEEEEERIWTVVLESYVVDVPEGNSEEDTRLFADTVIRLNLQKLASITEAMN; partner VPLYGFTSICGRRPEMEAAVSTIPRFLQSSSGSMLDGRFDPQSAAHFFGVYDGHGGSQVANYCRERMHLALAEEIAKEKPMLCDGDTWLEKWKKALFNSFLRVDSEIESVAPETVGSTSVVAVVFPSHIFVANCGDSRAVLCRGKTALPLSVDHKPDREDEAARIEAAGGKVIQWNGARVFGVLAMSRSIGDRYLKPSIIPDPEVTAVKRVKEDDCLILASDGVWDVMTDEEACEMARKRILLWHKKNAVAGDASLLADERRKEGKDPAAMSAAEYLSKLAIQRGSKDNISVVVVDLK
I133N: 43%
H16P: 1.64%
G102L: -3.81%
D96R: -1.67%
K54T: -6.89%
M68Q: 1.26%
L166Y: 6.26%
D48E: 4.36%
G108K: 0.0238%
L20R: 32.2%
D153N: -0.586%
T120K: -8.56%
Q167T: 16.5%
S104E: -10.2%
N77F: 23.4%
I52T: 32.7%
Y115K: -0.971%
L8F: 39.7%

Set 4 — target: CCNE1, cyclin fold, Cln2 fusion (human); method: yeast growth competition, sequencing; sample: yeast; setting: weak parent motif; relative to: not given; direction: higher = stronger binding; endpoint: normalised enrichment score
Starting sequence: PKN2 docking peptide (human); VSAVQKLDFSDTM
VSAVQKLDFSDTK [M13K]: 0.184
VSAVQFLDFSDTM [K6F]: 0.494
VSAMQKLDFSDTM [V4M]: 0.562
VSAVQKTDFSDTM [L7T]: -0.468
VSAVQKVDFSDTM [L7V]: -0.343
VSAVQKLDYSDTM [F9Y]: 0.445
VSAVQKLDFSDTV [M13V]: 0.802
VSAVQKLDPSDTM [F9P]: -0.166
VIAVQKLDFSDTM [S2I]: 0.304
VSAVQKLDFSSTM [D11S]: 0.316
VSAVQKLDFSATM [D11A]: 0.736
VSAVQKLDFSNTM [D11N]: 0.0893
VSWVQKLDFSDTM [A3W]: 1.13
VSAVQKLDKSDTM [F9K]: 0.263
VSATQKLDFSDTM [V4T]: -0.137
YSAVQKLDFSDTM [V1Y]: 0.904
VSAVQKLDFSRTM [D11R]: 0.628
VSAVQKLDFSTTM [D11T]: 0.711
QSAVQKLDFSDTM [V1Q]: 1.07

Set 5 — target: UBE2J2 UBC core domain (UniProt Q8N2K1); method: yeast two-hybrid; sample: yeast; setting: mostly zero background; relative to: not given; direction: higher = stronger interaction; endpoint: lacZ reporter activity
Sequence of UniProt Q8N2K1 (whole entry, looked up): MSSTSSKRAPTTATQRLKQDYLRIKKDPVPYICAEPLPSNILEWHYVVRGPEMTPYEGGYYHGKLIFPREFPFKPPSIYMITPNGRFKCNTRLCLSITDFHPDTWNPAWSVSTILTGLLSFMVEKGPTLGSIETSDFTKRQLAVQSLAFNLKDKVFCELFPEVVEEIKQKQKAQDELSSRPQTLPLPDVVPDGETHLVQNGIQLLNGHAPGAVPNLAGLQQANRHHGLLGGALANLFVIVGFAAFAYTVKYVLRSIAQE
B1: TRIM54 RING domain (UniProt Q9BYV2); chain SMDNLEKQLICPICLEMFSKPVVILPCQHNLCRKCANDVFQASNPLWQSRGSTTVSSGGRFRCPSCRHEVVLDRHGV
B2: TRIM26 RING domain (UniProt Q12899); chain PLRSLEEEVTCSICLDYLRDPVTIDCGHVFCRSCTTDVRPISGSRPVCPLCKKPFKKENIRP
B3: ANAPC11 RING domain (UniProt Q9NYG5); chain GICRMAFNGCCPDCKVPGDDCPLVWGQCSHCFHMHCILKWLHAQQVQQHCPMCRQEWKFKE
B4: MEX3B RING domain (UniProt Q6ZN04); chain SGLRRKGSRDCSVCFESEVIAALVPCGHNLFCMECANRICEKSEPECPVCHTAVTQAIRIF
B5: RNF152 RING domain (UniProt Q8N8N0); chain ETLSQDSLLECQICFNYYSPRRRPKLLDCKHTCCSVCLQQMRTSQKDVRCPWCRGVTKLPPGFS
B6: RNF31 RING domain (UniProt Q96EP0); chain AFLRRLLAQECAVCGWALPHNRMQALTSCECTICPDCFRQHFTIALKEKHITDMVCPACGRPDLTDDTQLL
B7: TRIM31 RING domain (UniProt Q9BZY9); chain FVNKLQEEVICPICLDILQKPVTIDCGHNFCLKCITQIGETSCGFFKCPLCKTSVRKNAIRF
B8: RNF2 RING domain (UniProt Q99496); chain SPRSLHSELMCPICLDMLKNTMTTKECLHRFCADCIITALRSGNKECPTCRKKLVSKRSLR
QVQSRTKIEECVVCSDKKAAVLFQPCGHMCACENCANLMKKCVQCRAVVERRVPFI (MIB1 RING domain (UniProt Q86YT6)): 0
B1 (TRIM54 RING domain): 0
B2 (TRIM26 RING domain): 0
B3 (ANAPC11 RING domain): 4900
YCEMGSTFQLCKICAENDKDVKIEPCGHLMCTSCLTAWQESDGQGCPFCRCEIKGTEPII (CBLB RING domain (UniProt Q13191)): 0
AEADPLGRFTCPVCLEVYEKPVQVPCGHVFCSACLQECLKPKKPVCGVCRSALAPGVRAV (RNF114 RING domain (UniProt Q9Y508)): 0
LDAASGHPLVCPLCHGQYERPCLLDCFHDFCTGCLRGRATDGRLSCPLCQHQTLVKGPSG (Rnf207 RING domain (UniProt Q3V3A7)): 0
B4 (MEX3B RING domain): 0
PEELAVNNDDCAICWDSMQAARKLPCGHLFHNSCLRSWLEQDTSCPTCRMSLNIADNNR (AMFR RING domain (UniProt Q9UKV5)): 0
B5 (RNF152 RING domain): 2670
B6 (RNF31 RING domain): 2750
B7 (TRIM31 RING domain): 0
MNDVLENELQCIICSEYFIEAVTLNCAHSFCSYCINEWMKRKIECPICRKDIKSKTYSL (RNF8 RING domain (UniProt O76064)): 0
B8 (RNF2 RING domain): 2870
YPEEVDDDLICHICLQALLDPLDTPCGHTYCTLCLTNFLVEKDFCPMDRKPLVLQHCKK (LNX1 RING domain (UniProt Q8TBB1)): 0

Some of these lines once more (set 5):
PEELAVNNDDCAICWDSMQAARKLPCGHLFHNSCLRSWLEQDTSCPTCRMSLNIADNNR (AMFR RING domain (UniProt Q9UKV5)): 0
B1 (TRIM54 RING domain): 0
AEADPLGRFTCPVCLEVYEKPVQVPCGHVFCSACLQECLKPKKPVCGVCRSALAPGVRAV (RNF114 RING domain (UniProt Q9Y508)): 0
YCEMGSTFQLCKICAENDKDVKIEPCGHLMCTSCLTAWQESDGQGCPFCRCEIKGTEPII (CBLB RING domain (UniProt Q13191)): 0
B2 (TRIM26 RING domain): 0
B8 (RNF2 RING domain): 2870
